{"data": "Measured values from different studies", "note": "A part holds a random share of what one study measured."}
{"data": "Set 1", "target": "Centromere-binding protein 1, full length, His-tagged (CBF1, Saccharomyces cerevisiae, UniProt P17106, residues 1-351)", "technique": "competition protein-binding microarray", "molecule type": "double-stranded DNA, one strand shown", "matrix": "in vitro", "tested at": "2 µM", "notes": "whole 60-bp probe, lowest competitor level", "together with": "Pho4 competitor, 0.05 µM", "reading": "higher = stronger binding", "shared flanks, not repeated": "… GTCTTGATTCGCTTGACGCTGCTG", "UniProt P17106, sequence (whole entry, looked up)": "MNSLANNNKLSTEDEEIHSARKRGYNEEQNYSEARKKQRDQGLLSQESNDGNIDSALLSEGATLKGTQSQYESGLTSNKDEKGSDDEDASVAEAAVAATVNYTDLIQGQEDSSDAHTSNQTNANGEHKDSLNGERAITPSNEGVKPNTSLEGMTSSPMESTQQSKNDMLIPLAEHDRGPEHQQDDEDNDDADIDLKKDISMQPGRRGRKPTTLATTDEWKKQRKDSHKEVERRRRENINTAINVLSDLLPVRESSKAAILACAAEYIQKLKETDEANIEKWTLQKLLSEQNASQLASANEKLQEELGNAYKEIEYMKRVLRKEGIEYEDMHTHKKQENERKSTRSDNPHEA"}
{"Oligonucleotide": "CTTTCCCGATCTTTTCACGTGATCTTAGCACATTTG", "fluorescence intensity [a.u.]": 5000}
{"Oligonucleotide": "TGCGCAACAACTTGGGCGGTGGGTGTATGTCTAGAA", "fluorescence intensity [a.u.]": 55.9}
{"Oligonucleotide": "TACCGATGATGTTGTCATGATGGACAGTGATGAGGG", "fluorescence intensity [a.u.]": 80.9}
{"Oligonucleotide": "TTTGGTGACTTACACCACATGTAATGACGCTATGAC", "fluorescence intensity [a.u.]": 117}
{"Oligonucleotide": "CTAACGAAGGTTTGGCTCGTGGGTGACAAGCCAAGT", "fluorescence intensity [a.u.]": 86.8}
{"Oligonucleotide": "AAATTACTAAGTTGTAAGGTGGGTGACGCCGTATGA", "fluorescence intensity [a.u.]": 64.8}
{"Oligonucleotide": "CCCGCCCCCGGCCAGCACGCGCCTCTGCCTGAGACC", "fluorescence intensity [a.u.]": 72.8}
{"Oligonucleotide": "TGAAAAGTGTGCTGGCACGGGATCGTTACTAATCCA", "fluorescence intensity [a.u.]": 305}
{"Oligonucleotide": "CAGCGCGATCAGTTGCACATGGCGCGACTGCAAACC", "fluorescence intensity [a.u.]": 98.3}
{"Oligonucleotide": "CTTCTGTAAATTTGCATTGTGGGTGGACGCGCCCCG", "fluorescence intensity [a.u.]": 73.9}
{"Oligonucleotide": "CTTGTGCGGGGAGGACACGCTGAATAGAAGGCTTGT", "fluorescence intensity [a.u.]": 73.3}
{"Oligonucleotide": "TAATCGGAGACGAGTCACGTGCAAAAAGAAATCATA", "fluorescence intensity [a.u.]": 7470}
{"Oligonucleotide": "AAAACGAGCCTCCATCACGTGCAAAAAAGAAATAGT", "fluorescence intensity [a.u.]": 4290}
{"Oligonucleotide": "CGGGGTTAAGTTTGTTTCGTGGGTGGCTTGCAGCAG", "fluorescence intensity [a.u.]": 75.2}
{"Oligonucleotide": "ATTGAATTGGGATATCACATGGTTATTATGGGTCCT", "fluorescence intensity [a.u.]": 686}
{"Oligonucleotide": "CCAGAAAGCCGCTATCACGTGATGGTCAATTTCTTT", "fluorescence intensity [a.u.]": 13500}
{"Oligonucleotide": "AAGTTGAAGAAAAGCCAGGTGACGGAGGTGCCCTAG", "fluorescence intensity [a.u.]": 68.2}
{"Oligonucleotide": "GATGTAGATTACACTCTCATGACAATAAGCCACCCG", "fluorescence intensity [a.u.]": 62.7}
{"Oligonucleotide": "GGGAATACAAACCTTGATGTGACGCTTTAGCCAATA", "fluorescence intensity [a.u.]": 79.5}
{"data": "Set 2", "target": "Sal-like protein 4, full length isoform B (SALL4, Homo sapiens, UniProt Q9UJQ4-2, residues 1-616)", "technique": "universal PBM", "molecule type": "double-stranded DNA, one strand shown", "matrix": "in vitro", "tested at": "not given", "notes": "8-mer, flanks averaged, mean of replicates", "reading": "higher = stronger binding"}
{"Oligonucleotide": "AACAAGGA", "E-score": 0.164}
{"Oligonucleotide": "GAATGTCA", "E-score": -0.0447}
{"Oligonucleotide": "ATGGCCAA", "E-score": -0.00275}
{"Oligonucleotide": "GTAAGAAA", "E-score": 0.0294}
{"Oligonucleotide": "ACAATTGG", "E-score": -0.0668}
{"Oligonucleotide": "CACGTTCA", "E-score": 0.00447}
{"Oligonucleotide": "CGTAAGGC", "E-score": -0.0728}
{"Oligonucleotide": "AGAAGACA", "E-score": 0.0551}
{"Oligonucleotide": "AGTCATCC", "E-score": -0.138}
{"Oligonucleotide": "ACTATTCG", "E-score": 0.203}
{"Oligonucleotide": "GGGTGCAC", "E-score": -0.265}
{"Oligonucleotide": "GGATTGAA", "E-score": 0.116}
{"Oligonucleotide": "CCAGAACA", "E-score": -0.0766}
{"Oligonucleotide": "CCCTACCA", "E-score": -0.17}
{"Oligonucleotide": "CTGGAAGA", "E-score": -0.146}
{"Oligonucleotide": "ATATAGCC", "E-score": 0.213}
{"data": "Set 3", "target": "Histone acetyltransferase KAT6A, both winged helices, GST fusion (KAT6A, Homo sapiens, UniProt Q92794, residues 1-181)", "technique": "protein binding microarray", "molecule type": "double-stranded DNA, one strand shown", "matrix": "in vitro", "tested at": "not given", "notes": "8-mer, flanks averaged, mean of 2 arrays, mostly near background", "relative to": "not given", "reading": "higher = stronger binding", "Residues (chain)": "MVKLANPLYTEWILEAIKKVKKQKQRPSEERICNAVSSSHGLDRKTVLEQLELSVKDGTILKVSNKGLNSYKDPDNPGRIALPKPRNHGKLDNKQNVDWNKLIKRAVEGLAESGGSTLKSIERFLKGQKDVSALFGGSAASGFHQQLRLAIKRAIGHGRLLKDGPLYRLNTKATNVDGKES"}
{"Oligonucleotide": "AGAACCAG", "E-score": -0.0303}
{"Oligonucleotide": "CGCCTATA", "E-score": 0.202}
{"Oligonucleotide": "GCTCTGTA", "E-score": -0.115}
{"Oligonucleotide": "AAGCCAAT", "E-score": -0.169}
{"Oligonucleotide": "AATCCGGC", "E-score": 0.0811}
{"Oligonucleotide": "ATAATGGA", "E-score": -0.127}
{"Oligonucleotide": "CATCACAG", "E-score": -0.0578}
{"Oligonucleotide": "AGTGGTCC", "E-score": -0.112}
{"Oligonucleotide": "TCGACCCA", "E-score": -0.202}
{"Oligonucleotide": "CGAGACCC", "E-score": 0.133}
{"Oligonucleotide": "CAGAAGGC", "E-score": -0.0758}
{"Oligonucleotide": "GTAACCGA", "E-score": 0.0499}
{"Oligonucleotide": "ATGCCGTG", "E-score": 0.214}
{"Oligonucleotide": "AATAGCAT", "E-score": -0.184}
{"Oligonucleotide": "CAATCCGC", "E-score": 0.289}
{"Oligonucleotide": "CCCATGGA", "E-score": -0.261}
{"Oligonucleotide": "CTCATCAC", "E-score": -0.178}
{"Oligonucleotide": "TGGGTGAA", "E-score": 0.0398}
{"Oligonucleotide": "ACGGAGAT", "E-score": 0.0859}
{"Oligonucleotide": "CAGCTCGC", "E-score": -0.0549}
{"Oligonucleotide": "CTTTCGCC", "E-score": 0.0929}
{"Oligonucleotide": "ACCTCAGT", "E-score": -0.121}
{"data": "Set 4", "target": "Interferon regulatory factor 3, full length, phosphomimetic (IRF3, Homo sapiens, UniProt Q14653, residues 1-427, S386D/S396D/S398D/S402D/T404D/S405D)", "technique": "protein-binding microarray", "molecule type": "double-stranded DNA, one strand shown", "matrix": "in vitro", "tested at": "2540 nM top", "notes": "60-bp whole probe", "together with": "salmon DNA 0.4 mg/ml", "relative to": "random background probes", "reading": "higher = stronger binding", "shared flanks, not repeated": "GCCTAGCAC … GTCTTGATTCGCTTGACGCTGCTG", "Target sequence (chain)": "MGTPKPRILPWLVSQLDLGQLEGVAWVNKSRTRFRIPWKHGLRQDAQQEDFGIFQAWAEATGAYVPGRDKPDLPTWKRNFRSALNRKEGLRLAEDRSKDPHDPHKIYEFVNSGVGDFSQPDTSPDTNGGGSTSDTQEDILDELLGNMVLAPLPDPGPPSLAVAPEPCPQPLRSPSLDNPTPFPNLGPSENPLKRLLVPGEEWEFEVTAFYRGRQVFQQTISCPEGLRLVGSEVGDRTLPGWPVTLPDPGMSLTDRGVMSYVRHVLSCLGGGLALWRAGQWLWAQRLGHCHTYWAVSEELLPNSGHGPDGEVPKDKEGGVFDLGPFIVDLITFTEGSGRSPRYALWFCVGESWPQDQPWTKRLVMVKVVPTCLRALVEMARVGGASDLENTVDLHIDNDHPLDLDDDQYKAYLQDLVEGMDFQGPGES"}
{"Oligonucleotide": "GTATATATGTGTATATATAAGTGCTAG", "fitted relative affinity": "0.444 z-score"}
{"Oligonucleotide": "TCAACTCCCTCTCTGGCACTGTGCTAG", "fitted relative affinity": "0.499 z-score"}
{"Oligonucleotide": "TTAAGTATCGACTTTCGGTTAGTGCTA", "fitted relative affinity": "2.31 z-score"}
{"Oligonucleotide": "GACGGGATCGGGTATCGGGACGTGCTA", "fitted relative affinity": "0.226 z-score"}
{"Oligonucleotide": "CTAGGTTTCCTTATCCTTTAGTGCTAG", "fitted relative affinity": "8.04 z-score"}
{"Oligonucleotide": "TCAGTTGTAGTTTTCATACTGTGCTAG", "fitted relative affinity": "3.3 z-score"}
{"Oligonucleotide": "TCAATTTTGTGTCTGGGACTGTGCTAG", "fitted relative affinity": "0.0255 z-score"}
{"Oligonucleotide": "GTCGGACTGCTTCTCCTGACGTGCTAG", "fitted relative affinity": "0.308 z-score"}
{"Oligonucleotide": "GACGGTCTCATACTGCTGACGTGCTAG", "fitted relative affinity": "0.606 z-score"}
{"Oligonucleotide": "AATATTATAACACTCTTCTTGTGCTAG", "fitted relative affinity": "0.699 z-score"}
{"Oligonucleotide": "TTAGGACTGGACTTTCGATTAGTGCTA", "fitted relative affinity": "0.364 z-score"}
{"Oligonucleotide": "TCACCTCTCTGTCCCCCACTGTGCTAG", "fitted relative affinity": "0.726 z-score"}
{"Oligonucleotide": "TTAGGTCTGGACTATCGGTTAGTGCTA", "fitted relative affinity": "-0.408 z-score"}
{"Oligonucleotide": "TTAGGACTGGGGGCTGGGTTAGTGCTA", "fitted relative affinity": "-0.557 z-score"}
{"data": "Set 5", "target": "PABPC1L2, full length, GST fusion (mouse, UniProt A0ABA7IW68)", "technique": "RNAcompete", "molecule type": "RNA", "matrix": "in vitro", "tested at": "20 nM", "notes": "7-mer, probes averaged, single round", "relative to": "mean of 7-mers", "reading": "higher = stronger binding", "Construct (chain)": "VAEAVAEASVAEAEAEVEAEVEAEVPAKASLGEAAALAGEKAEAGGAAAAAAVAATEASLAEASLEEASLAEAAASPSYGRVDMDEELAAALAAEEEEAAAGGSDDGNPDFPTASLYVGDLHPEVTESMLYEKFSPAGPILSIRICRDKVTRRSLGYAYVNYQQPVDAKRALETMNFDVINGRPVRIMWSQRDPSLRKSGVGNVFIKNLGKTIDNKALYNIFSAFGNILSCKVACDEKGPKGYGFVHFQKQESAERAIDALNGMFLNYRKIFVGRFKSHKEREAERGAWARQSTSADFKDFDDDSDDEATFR"}
{"Oligonucleotide": "GCGCAGA", "7-mer Z-score": 0.124}
{"Oligonucleotide": "CUGGCAC", "7-mer Z-score": 0.00979}
{"Oligonucleotide": "AAUUGUU", "7-mer Z-score": -0.144}
{"Oligonucleotide": "GGACGUG", "7-mer Z-score": 0.186}
{"Oligonucleotide": "AUCCAUC", "7-mer Z-score": -0.248}
{"Oligonucleotide": "CAGUCCA", "7-mer Z-score": -0.217}
{"Oligonucleotide": "GUAUACG", "7-mer Z-score": -0.15}
{"Oligonucleotide": "UGUACAA", "7-mer Z-score": 0.265}
{"Oligonucleotide": "ACCAAUA", "7-mer Z-score": 0.104}
{"Oligonucleotide": "CUUGAUC", "7-mer Z-score": -0.277}
{"Oligonucleotide": "GCGGAAU", "7-mer Z-score": 0.329}
{"Oligonucleotide": "GGCUCGA", "7-mer Z-score": -0.0808}
{"Oligonucleotide": "AAUUAUA", "7-mer Z-score": 0.191}
{"Oligonucleotide": "UUCCUGC", "7-mer Z-score": -0.251}
{"Oligonucleotide": "GCGCUAC", "7-mer Z-score": 0.00254}
{"Oligonucleotide": "GUCGGGU", "7-mer Z-score": -0.153}
{"Oligonucleotide": "UUGAGCC", "7-mer Z-score": -0.318}
{"Oligonucleotide": "AAUAGGG", "7-mer Z-score": 0.644}
